Measured values pooled from the literature.
Every numbered part comes from another study and shows a few of its results, in no order. “And” joins repeats or separate records; there may be more than shown.
Sequence of UniProt P04629 (whole entry, looked up): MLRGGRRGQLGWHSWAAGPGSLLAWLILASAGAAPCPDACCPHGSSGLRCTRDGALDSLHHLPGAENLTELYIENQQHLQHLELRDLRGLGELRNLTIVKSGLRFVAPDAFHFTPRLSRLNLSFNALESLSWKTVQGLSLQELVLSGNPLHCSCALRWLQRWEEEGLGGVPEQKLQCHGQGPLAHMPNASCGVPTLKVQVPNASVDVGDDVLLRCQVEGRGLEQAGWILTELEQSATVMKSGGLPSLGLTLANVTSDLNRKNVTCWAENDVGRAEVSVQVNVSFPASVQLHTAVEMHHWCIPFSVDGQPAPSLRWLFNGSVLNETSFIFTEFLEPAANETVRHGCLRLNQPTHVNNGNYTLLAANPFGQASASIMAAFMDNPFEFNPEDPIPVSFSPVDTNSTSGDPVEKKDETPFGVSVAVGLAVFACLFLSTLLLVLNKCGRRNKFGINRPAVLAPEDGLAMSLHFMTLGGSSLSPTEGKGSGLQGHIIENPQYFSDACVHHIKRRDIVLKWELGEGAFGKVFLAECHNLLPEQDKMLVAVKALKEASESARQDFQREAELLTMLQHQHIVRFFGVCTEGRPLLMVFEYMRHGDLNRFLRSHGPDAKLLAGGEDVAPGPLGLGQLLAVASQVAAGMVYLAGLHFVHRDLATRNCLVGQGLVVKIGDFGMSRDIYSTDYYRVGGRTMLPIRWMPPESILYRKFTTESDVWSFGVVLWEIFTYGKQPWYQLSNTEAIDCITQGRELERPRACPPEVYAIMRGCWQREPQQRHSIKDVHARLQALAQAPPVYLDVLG
Sequence of UniProt Q6P2M8 (whole entry, looked up): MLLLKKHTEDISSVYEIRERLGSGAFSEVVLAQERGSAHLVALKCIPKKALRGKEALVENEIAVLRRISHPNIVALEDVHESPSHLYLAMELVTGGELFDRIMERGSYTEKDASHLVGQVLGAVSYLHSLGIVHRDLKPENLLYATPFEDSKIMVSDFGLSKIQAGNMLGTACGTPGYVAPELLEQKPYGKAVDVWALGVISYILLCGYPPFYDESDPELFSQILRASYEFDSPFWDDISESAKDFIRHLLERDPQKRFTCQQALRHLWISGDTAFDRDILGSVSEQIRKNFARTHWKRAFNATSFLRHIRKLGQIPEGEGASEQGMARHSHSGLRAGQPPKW
Sequence of UniProt P11802 (whole entry, looked up): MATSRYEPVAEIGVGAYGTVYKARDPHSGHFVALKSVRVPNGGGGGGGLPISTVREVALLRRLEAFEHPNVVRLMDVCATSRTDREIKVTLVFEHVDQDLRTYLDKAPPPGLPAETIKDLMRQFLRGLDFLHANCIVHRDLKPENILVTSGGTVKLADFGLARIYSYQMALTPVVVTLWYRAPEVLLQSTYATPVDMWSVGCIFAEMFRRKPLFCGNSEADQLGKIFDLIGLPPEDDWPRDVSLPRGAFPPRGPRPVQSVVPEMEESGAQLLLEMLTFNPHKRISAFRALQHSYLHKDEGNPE

Set 1 — tested at: 1 µM
Compound: O=C(O)[C@@H]1[C@@H](Cn2nnc3ccccc3c2=O)CC[C@H]1C(=O)c1ccc(OCCC2CCOCC2)cc1
target	observed	method	remaining binding [%]
MAPK6 (Homo sapiens, UniProt Q16659)	cell-free assay	competition with immobilised ligand	100
BMX (Homo sapiens, UniProt P51813)	cell-free assay	competition with immobilised ligand	100
CIT (Homo sapiens, UniProt O14578)	cell-free assay	competition with immobilised ligand	92
AAK1 (Homo sapiens, UniProt Q2M2I8)	binding	–	100
SRC (Homo sapiens, UniProt P12931)	cell-free assay	competition with immobilised ligand	89
NEK7 (Homo sapiens, UniProt Q8TDX7)	cell-free assay	competition with immobilised ligand	100
STK4 (Homo sapiens, UniProt Q13043)	cell-free assay	competition with immobilised ligand	98
DYRK1A (Homo sapiens, UniProt Q13627)	cell-free assay	competition with immobilised ligand	94
PNCK (Homo sapiens, UniProt Q6P2M8)	cell-free assay	competition with immobilised ligand	67
FLT3 (Homo sapiens, UniProt P36888, F691L/ITD)	cell-free assay	competition with immobilised ligand	100
Receptor-type tyrosine-protein kinase FLT3, autoinhibited (FLT3, Homo sapiens, UniProt P36888)	cell-free assay	competition with immobilised ligand	86
MAPK9 (Homo sapiens, UniProt P45984)	cell-free assay	competition with immobilised ligand	100
TNK1 (Homo sapiens, UniProt Q13470)	cell-free assay	competition with immobilised ligand	100
Tyrosine-protein kinase JAK2, JH1 (JAK2, Homo sapiens, UniProt O60674)	cell-free assay	competition with immobilised ligand	74
NTRK1 (Homo sapiens, UniProt P04629)	cell-free assay	competition with immobilised ligand	86
EPHA2 (Homo sapiens, UniProt P29317)	cell-free assay	competition with immobilised ligand	100
Cyclin-dependent kinase 4, with cyclin D1 (CDK4, Homo sapiens, UniProt P11802)	cell-free assay	competition with immobilised ligand	96

Set 2 — species: mouse; sample: microsomes or S9; tested at: 2 µM; time: 0.5 h
Compound	remaining compound
CC(C)c1ccc(CCCNS(C)(=O)=O)cc1	66.2%
Cc1noc(C)c1CCNc1ncnc2onc(-c3cccc(Cl)c3)c12	88.4%
CCn1c(C(=O)N(C)c2cc(C)ccc2OC)cc2c(=O)oc3ccccc3c21	1.53%
CCc1nc(C)sc1CNC(=O)Nc1ccc2c(cnn2C)c1	64.7%
CCc1ccc(-c2cn(Cc3ncc[nH]3)nn2)nc1	73.2%
CS(=O)(=O)CCCC(=O)N(CC(=O)O)C1CCCCC1	86.1%

Set 3 — cell line: Huh-7; tested at: 10 µM; time: 24 h
Structure (SMILES)	viability [%]
C1CNCCN1	101
O=C(O)CCCCCCCC(=O)O	102
CCOC(=O)C1=C(COCCN)NC(C)=C(C(=O)OC)C1c1ccccc1Cl (stereo not shown)	96.8
CC(C)(C)c1ccc(C(O)CCCN2CCC(C(O)(c3ccccc3)c3ccccc3)CC2)cc1 (stereo not shown)	38.4
NNC(=O)c1ccncc1	103
CCC(=O)NCC[C@@H]1CCc2ccc3c(c21)CCO3	114

Set 4 — observed: enzyme activity; mode: inhibitor; tested at: 77 µM; baseline: untreated
Target: DNA polymerase theta, ATPase domain (POLQ, Homo sapiens, UniProt O75417)
Sequence of UniProt O75417 (whole entry, unmodified, looked up): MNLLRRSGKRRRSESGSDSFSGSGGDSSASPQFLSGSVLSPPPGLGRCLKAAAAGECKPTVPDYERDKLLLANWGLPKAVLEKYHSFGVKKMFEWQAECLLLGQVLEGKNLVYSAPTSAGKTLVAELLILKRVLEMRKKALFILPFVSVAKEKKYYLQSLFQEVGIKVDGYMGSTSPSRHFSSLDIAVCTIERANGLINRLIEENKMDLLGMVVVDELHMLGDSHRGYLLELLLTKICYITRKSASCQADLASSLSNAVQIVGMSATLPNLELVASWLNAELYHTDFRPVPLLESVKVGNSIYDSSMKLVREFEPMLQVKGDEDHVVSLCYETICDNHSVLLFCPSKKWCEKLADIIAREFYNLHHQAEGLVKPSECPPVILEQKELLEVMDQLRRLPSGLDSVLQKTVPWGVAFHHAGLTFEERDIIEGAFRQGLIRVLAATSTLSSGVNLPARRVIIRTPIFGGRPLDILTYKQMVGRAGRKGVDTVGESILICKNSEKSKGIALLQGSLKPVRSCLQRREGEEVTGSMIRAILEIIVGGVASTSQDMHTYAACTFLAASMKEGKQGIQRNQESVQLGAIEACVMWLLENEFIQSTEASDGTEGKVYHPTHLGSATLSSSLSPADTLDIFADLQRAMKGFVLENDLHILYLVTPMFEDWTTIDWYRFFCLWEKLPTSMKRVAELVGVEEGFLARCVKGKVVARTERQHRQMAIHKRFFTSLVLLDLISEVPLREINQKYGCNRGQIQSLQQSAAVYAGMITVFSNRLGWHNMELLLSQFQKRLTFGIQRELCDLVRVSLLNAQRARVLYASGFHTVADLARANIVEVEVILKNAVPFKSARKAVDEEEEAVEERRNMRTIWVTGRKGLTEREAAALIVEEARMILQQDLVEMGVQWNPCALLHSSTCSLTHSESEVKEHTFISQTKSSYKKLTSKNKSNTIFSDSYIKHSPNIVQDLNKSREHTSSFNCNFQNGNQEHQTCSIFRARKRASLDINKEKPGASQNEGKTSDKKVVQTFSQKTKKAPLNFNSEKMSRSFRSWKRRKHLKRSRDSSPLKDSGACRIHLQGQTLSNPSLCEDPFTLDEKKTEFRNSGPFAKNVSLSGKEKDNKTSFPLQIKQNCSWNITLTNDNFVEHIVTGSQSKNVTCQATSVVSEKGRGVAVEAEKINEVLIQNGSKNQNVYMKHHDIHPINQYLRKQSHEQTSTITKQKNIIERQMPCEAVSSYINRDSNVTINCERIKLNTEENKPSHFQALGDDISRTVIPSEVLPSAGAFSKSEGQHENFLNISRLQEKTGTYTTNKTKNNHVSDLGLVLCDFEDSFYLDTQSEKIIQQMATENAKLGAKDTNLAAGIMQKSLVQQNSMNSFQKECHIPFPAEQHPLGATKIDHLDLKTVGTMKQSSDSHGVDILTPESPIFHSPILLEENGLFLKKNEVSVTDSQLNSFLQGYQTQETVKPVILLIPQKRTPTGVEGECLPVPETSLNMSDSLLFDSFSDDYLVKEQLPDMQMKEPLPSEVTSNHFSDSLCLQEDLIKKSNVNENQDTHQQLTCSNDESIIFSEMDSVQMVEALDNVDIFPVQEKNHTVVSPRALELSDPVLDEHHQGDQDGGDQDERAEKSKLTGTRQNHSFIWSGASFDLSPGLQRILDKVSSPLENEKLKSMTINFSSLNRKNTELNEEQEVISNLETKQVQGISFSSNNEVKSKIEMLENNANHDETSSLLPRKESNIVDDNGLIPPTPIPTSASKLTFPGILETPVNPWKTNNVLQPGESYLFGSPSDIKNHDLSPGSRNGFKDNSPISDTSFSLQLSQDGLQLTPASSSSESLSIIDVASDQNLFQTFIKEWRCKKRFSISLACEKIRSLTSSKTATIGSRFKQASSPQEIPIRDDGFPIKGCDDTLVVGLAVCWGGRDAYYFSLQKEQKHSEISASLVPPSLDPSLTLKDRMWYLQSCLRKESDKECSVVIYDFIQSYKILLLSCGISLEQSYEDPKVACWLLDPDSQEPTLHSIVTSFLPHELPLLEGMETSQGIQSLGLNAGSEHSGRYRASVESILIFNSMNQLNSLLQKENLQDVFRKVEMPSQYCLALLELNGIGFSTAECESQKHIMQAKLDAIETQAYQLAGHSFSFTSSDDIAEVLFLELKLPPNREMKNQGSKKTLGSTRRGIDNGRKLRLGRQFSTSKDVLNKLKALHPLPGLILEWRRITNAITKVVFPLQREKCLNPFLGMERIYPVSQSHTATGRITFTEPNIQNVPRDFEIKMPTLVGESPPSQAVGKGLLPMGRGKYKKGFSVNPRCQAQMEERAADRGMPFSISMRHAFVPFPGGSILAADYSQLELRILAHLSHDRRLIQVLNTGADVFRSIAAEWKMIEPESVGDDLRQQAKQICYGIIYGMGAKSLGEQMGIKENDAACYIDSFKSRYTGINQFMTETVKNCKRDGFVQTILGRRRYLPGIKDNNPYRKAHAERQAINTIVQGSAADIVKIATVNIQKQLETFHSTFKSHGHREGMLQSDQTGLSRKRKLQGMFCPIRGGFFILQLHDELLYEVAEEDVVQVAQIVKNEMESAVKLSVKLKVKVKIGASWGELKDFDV
Structure (SMILES)	remaining activity
CC#CCOC(=O)c1c(C)nc2sc3c(c2c1N)CCC(O)C3 (stereo not shown)	95.9%
Cc1ccc(C(=O)c2ccc(CC(=O)O)n2C)cc1	101%
NCCC1CCCC(CCN)N1 (stereo not shown)	100%
CC(C)(NS(=O)(=O)c1ccc(Oc2ccc(F)cc2)cc1)C(=O)NO	95.6%
CN(C)C(=O)Oc1ccc[n+](C)c1	95.5% and 104%
